Experimental data collected from several papers.
A part holds a random share of what one study measured. Changes are numbered by the printed parent chain.

Sample 1
Partner: H2BC18 (Homo sapiens, UniProt Q5QNW6)
Technique: cross-linking MS
Notes: hits only
Under interaction screen, `Histone H2B type 1-C/E/F/G/I (Homo sapiens, UniProt P62807)` is recorded as “cross-linked”.
For `H2AX (Homo sapiens, UniProt P16104)`, interaction screen read “cross-linked”.
Under interaction screen, `H2AZ1 (Homo sapiens, UniProt P0C0S5)` is recorded as “cross-linked”.
`H3-4 (Homo sapiens, UniProt Q16695)` — result for interaction screen: “cross-linked”.

Sample 2
Target: Sal-like protein 4, full length isoform B (SALL4, Homo sapiens, UniProt Q9UJQ4-2, residues 1-616)
Technique: universal PBM
Form: double-stranded DNA, one strand shown
Medium: in vitro
Concentration: not given
Notes: 8-mer, flanks averaged, mean of replicates
Reading: higher = stronger binding
The E-score of `GCCGAAGA` is reported as -0.138.
`ACTCAAAT` gave an E-score of 0.187.
The E-score of `GCAATTCA` is reported as 0.113.
With `ATTGCTCA` the E-score was 0.173.
The E-score of `TAAACTTA` is reported as 0.245.
`GGGCCAAC` has an E-score of -0.181.
`AGTTAAGG` has an E-score of 0.0059.
`ACCCTGCC` has an E-score of -0.276.

Sample 3
Target: CCNE1, cyclin fold, Cln2 fusion (human)
Technique: yeast growth competition, sequencing
Medium: yeast
Notes: strong parent motif
Reference: not given
Reading: higher = stronger binding
Starting sequence: viral docking peptide; PTARRRLLHDLDT
Under “normalised enrichment score”, `D10A` is recorded as 0.013.
`R5A R6A L7A L8A`: “normalised enrichment score” -0.142.
Under “normalised enrichment score”, `D12A` is recorded as 0.542.
`H9A` — result for “normalised enrichment score”: 1.84.
Under “normalised enrichment score”, `R5A` is recorded as 0.0464.
For `H9F`, “normalised enrichment score” read 6.15.
Under “normalised enrichment score”, `R4A` is recorded as 0.0872.
For `R5K H9F`, “normalised enrichment score” read 4.34.
Under “normalised enrichment score”, `P1A` is recorded as 1.19.

Single results of other studies
Starting sequence: PafA, mature enzyme, eGFP fusion (Elizabethkingia meningoseptica, UniProt Q9KJX5); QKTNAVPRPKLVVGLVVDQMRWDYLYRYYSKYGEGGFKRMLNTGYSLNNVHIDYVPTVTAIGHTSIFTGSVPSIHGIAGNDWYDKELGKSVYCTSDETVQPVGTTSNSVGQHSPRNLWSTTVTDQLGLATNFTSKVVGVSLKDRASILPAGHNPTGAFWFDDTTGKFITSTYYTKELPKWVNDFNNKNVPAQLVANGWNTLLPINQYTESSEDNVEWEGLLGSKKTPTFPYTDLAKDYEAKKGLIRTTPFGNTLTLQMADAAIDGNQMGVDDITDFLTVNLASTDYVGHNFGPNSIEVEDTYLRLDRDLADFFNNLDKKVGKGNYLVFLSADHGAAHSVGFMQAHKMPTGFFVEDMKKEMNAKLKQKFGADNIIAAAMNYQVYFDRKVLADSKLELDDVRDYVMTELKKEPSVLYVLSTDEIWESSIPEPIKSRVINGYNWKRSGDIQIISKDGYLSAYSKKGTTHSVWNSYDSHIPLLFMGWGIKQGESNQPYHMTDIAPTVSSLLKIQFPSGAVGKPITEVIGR
`V122G`: “oxyanion analog dissociation constant” 699 nM (vanadate, free oxyanion; microfluidic competitive inhibition; in vitro, cell-free expressed; not given, derived from inhibition constants, unchanged parent 676 nM; lower = stronger binding).

Some of these lines once more (sample 1):
For `H2AX (Homo sapiens, UniProt P16104)`, interaction screen read “cross-linked”.
Under interaction screen, `H2AZ1 (Homo sapiens, UniProt P0C0S5)` is recorded as “cross-linked”.
`H3-4 (Homo sapiens, UniProt Q16695)` — result for interaction screen: “cross-linked”.
